Assay results collected from several papers.
Protocols differ between the studies behind these lines. ± marks the error that the study gave.
Chain of UniProt P61073 (whole entry, looked up): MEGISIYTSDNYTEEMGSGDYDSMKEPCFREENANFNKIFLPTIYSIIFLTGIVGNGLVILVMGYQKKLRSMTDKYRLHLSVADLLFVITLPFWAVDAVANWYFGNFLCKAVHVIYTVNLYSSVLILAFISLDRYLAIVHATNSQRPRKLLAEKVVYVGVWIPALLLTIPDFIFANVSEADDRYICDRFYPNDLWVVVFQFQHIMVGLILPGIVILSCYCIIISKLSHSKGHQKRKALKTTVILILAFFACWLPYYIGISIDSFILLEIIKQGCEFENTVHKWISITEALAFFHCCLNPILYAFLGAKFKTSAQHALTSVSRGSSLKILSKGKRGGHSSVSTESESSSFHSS
Chain of UniProt P27487 (whole entry, looked up): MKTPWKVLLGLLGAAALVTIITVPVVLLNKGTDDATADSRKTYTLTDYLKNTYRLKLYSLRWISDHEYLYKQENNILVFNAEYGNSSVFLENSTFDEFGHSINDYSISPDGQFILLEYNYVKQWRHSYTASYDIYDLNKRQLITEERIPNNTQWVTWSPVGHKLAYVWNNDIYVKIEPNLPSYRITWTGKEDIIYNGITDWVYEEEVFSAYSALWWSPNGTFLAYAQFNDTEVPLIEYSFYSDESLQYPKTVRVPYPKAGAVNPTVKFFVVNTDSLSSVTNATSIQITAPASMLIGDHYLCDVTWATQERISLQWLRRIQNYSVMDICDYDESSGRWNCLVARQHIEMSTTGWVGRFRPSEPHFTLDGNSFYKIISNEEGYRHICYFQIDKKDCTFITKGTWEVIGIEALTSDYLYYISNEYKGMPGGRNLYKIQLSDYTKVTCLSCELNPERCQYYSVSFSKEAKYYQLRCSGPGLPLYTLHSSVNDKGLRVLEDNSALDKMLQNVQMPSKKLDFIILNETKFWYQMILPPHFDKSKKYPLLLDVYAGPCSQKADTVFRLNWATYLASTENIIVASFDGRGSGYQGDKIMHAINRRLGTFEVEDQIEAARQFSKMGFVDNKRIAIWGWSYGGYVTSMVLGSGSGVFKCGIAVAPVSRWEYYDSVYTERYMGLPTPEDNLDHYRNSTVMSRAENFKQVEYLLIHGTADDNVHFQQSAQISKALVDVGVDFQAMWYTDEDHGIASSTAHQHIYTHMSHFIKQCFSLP
Chain of UniProt P14555 (whole entry, looked up): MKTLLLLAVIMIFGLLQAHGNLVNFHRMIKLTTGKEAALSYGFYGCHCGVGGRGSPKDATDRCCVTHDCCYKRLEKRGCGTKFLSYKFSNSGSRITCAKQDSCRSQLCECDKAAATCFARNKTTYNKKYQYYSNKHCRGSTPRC
Chain of UniProt P97583 (whole entry, looked up): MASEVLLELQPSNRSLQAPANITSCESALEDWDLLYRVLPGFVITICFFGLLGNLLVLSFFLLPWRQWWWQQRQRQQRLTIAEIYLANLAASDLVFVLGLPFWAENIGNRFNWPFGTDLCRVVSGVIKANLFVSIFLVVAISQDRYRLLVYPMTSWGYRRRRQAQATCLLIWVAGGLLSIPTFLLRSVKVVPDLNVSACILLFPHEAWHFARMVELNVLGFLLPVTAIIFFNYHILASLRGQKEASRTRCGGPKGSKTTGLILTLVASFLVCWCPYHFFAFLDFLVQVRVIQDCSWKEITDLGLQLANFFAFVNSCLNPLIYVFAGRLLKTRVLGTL
Chain of UniProt P05556 (whole entry, looked up): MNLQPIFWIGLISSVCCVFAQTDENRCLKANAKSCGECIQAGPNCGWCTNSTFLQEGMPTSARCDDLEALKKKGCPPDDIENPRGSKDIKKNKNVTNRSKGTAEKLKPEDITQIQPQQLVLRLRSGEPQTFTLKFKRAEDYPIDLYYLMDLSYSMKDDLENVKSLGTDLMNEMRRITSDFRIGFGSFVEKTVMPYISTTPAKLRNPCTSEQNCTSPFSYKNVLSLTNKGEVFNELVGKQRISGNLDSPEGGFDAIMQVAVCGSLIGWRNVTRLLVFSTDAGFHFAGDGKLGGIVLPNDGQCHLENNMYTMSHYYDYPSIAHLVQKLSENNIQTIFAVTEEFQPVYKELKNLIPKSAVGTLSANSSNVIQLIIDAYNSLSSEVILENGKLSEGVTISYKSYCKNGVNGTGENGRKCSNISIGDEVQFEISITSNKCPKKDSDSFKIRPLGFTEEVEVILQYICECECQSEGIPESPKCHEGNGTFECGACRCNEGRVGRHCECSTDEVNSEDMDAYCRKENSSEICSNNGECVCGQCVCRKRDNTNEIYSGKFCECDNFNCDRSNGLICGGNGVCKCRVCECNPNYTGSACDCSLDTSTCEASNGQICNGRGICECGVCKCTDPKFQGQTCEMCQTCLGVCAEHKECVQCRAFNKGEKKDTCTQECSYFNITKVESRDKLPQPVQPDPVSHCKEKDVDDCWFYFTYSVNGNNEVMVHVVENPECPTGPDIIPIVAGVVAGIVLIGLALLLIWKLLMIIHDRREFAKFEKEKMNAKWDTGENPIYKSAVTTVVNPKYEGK
Chain of UniProt Q06187 (whole entry, looked up): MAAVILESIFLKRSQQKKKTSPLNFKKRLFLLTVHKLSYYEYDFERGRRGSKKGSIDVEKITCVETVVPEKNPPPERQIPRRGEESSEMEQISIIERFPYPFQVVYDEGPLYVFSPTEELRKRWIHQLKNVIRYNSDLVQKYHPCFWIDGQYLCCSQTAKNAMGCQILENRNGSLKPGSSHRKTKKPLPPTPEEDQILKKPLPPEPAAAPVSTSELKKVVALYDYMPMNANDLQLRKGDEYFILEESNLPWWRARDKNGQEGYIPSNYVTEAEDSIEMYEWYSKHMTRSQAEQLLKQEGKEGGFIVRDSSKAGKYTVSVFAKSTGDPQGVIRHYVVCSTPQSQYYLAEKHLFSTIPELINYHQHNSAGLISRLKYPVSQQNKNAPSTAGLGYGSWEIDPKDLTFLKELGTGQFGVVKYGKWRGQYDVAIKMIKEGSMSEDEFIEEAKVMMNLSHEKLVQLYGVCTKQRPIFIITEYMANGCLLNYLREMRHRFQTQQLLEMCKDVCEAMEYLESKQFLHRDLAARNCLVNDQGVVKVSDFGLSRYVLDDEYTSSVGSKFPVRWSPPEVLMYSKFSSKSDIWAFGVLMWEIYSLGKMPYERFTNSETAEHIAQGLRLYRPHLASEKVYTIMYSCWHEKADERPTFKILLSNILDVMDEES
Chain of UniProt Q12851 (whole entry, looked up): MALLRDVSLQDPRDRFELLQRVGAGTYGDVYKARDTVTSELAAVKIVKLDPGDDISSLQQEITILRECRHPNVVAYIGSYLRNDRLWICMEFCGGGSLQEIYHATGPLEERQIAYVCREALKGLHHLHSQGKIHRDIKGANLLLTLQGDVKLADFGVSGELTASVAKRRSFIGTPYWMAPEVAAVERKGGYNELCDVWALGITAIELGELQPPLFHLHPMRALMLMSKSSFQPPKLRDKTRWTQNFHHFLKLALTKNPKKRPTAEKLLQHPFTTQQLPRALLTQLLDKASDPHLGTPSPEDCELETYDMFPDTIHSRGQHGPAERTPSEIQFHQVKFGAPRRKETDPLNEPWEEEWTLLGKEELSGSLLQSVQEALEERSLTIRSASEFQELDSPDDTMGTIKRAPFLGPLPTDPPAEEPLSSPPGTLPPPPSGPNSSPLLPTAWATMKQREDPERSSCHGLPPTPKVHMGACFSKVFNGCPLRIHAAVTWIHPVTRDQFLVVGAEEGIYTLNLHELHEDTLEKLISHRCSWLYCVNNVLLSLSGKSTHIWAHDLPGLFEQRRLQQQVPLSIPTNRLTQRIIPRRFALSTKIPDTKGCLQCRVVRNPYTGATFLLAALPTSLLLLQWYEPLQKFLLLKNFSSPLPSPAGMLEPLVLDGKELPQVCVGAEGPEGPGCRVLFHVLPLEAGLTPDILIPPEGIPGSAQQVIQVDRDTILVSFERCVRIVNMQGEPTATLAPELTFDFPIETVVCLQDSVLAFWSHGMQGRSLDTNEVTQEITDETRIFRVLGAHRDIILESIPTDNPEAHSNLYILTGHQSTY
Chain of UniProt P08648 (whole entry, looked up): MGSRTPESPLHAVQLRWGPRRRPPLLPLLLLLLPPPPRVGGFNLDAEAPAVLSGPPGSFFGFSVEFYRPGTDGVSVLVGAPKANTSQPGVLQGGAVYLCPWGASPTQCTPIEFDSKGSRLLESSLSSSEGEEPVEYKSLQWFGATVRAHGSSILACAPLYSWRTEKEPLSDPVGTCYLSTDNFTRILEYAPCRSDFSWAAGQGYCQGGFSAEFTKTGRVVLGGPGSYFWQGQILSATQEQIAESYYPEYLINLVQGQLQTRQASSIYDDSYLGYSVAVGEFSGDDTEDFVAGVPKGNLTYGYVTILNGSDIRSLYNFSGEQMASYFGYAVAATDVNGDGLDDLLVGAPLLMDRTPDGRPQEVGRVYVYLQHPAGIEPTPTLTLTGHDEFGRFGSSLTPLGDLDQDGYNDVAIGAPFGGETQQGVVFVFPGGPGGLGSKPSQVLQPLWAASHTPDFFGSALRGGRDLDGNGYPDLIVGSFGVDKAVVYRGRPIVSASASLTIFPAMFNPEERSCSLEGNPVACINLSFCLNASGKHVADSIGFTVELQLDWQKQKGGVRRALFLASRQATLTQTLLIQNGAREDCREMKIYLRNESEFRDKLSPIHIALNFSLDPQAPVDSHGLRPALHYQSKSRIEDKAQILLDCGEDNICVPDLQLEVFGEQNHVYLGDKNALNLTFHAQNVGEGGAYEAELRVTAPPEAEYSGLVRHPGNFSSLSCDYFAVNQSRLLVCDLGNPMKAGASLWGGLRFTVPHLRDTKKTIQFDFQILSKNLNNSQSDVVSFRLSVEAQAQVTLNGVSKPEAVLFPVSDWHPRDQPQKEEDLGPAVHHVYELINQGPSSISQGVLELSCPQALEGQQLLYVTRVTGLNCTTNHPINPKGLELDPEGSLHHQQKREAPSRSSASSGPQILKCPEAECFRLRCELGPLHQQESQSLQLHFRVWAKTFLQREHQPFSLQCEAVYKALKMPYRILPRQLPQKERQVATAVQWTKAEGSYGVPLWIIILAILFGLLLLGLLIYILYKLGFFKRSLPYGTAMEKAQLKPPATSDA

| SMILES | tested on | assay | system | conditions | how to read | quantity | value |
| --- | --- | --- | --- | --- | --- | --- | --- |
| Cc1cc(NC2CCN(C)CC2)ccc1-c1cc2c(N3CCC[C@H](C(=O)NCc4ccc(OC(F)(F)F)cc4)C3)ncnc2[nH]1 | MAP4K2 (Homo sapiens, UniProt Q12851) | enzyme activity, inhibitor, mobility shift |  |  |  | IC50 | 1530 nM |
| CCCCCCC1CCC/C1=N\NC(N)=S (centres unmarked) | Scavenger receptor class B member 1 (Mus musculus, UniProt Q61009) | HDL binding, enhancer | ldlA[mSR-BI] cells | added: Alexa488-HDL |  | IC50 | 90 nM |
| Cc1ncsc1-c1ccc(C(C)NC(=O)C2CC(O)CN2C(=O)C(NC(=O)CCCCCCCCCCN2CCCC(Nc3ncc(Cl)c(Nc4ccccc4S(=O)(=O)C(C)C)n3)C2)C(C)(C)C)cc1 (centres unmarked) | 22Rv1 | RNA-seq, measured: MGAT2 mRNA |  | concentration not given | baseline: DMSO | log2 fold change | -1.11 |
| CC(C)C[C@H](NC(=O)[C@H](Cc1ccc(CN)cc1)NC(=O)[C@H](Cc1ccccc1)N=[N+]=[N-])C(=O)N[C@@H](CCC1CCCCC1)C(=O)[C@@]1(C)CO1 | PSMB5 (Homo sapiens, UniProt P28074) | competitive ABPP | Raji cell lysate |  |  | IC50 | > 10000 nM |
| Fc1ccc(Nc2nc(NC3CCCCC3)c3cc(C(F)(F)F)ccc3n2)cc1F | ADRB2 (Homo sapiens, UniProt P07550, F133L) | β-arrestin2 recruitment, antagonist, BRET | HEK293 | mutant F133L, added: isoprenaline 1 µM |  | IC50 | 501 nM |
| O=C(CNC(=O)c1cccc(NC2=NCCCS2)c1)NC[C@H](NC(=O)c1c(Cl)cc(-c2ccccc2)cc1Cl)C(=O)O | Integrin alpha-5/beta-1 (Homo sapiens, UniProt P05556+P08648) | cell adhesion, inhibitor | SW480 | added: fibronectin 0.3 µg/mL |  | IC50 | 20 nM |
| Cc1nn(-c2ccc(S(N)(=O)=O)cc2)c(C)c1CCC(=O)Nc1ccc(-c2ccc[nH]2)cc1 | CA9 (Homo sapiens, UniProt Q16790) | enzyme activity, inhibitor |  |  |  | IC50 | 15.1 nM |
| NC(N)=NS(=O)(=O)c1ccc(NC(=O)/C=C\C(=O)O)cc1 | DPP4 (Homo sapiens, UniProt P27487) | enzyme activity, inhibitor, fluorescence |  |  |  | IC50 | 43200 nM |
| COC1CN([C@H]2CC[C@H]([C@@]3(C)Oc4c(Cl)cc(C(=O)NCc5c(SC)cc(C)[nH]c5=O)c(C)c4O3)CC2)C1 |  | RNA-seq, measured: TMTC1 | human, whole blood | dose not given, 24 h | baseline: pretreatment baseline | log2 fold change | 3.63 |
| Cc1nn(-c2cccc(N)c2)c(=O)c2cnc(Nc3ccc(N4CCNCC4)cc3)nc12 | BTK (Homo sapiens, UniProt Q06187) | kinase activity, inhibitor, SelectScreen kinase profiling |  |  |  | IC50 | > 10000 nM |
| CCS(=O)(=O)c1ncc(N(Cc2ccco2)Cc2ccc(C)o2)c(C(=O)Nc2ccccc2F)n1 | CXCR4 (Homo sapiens, UniProt P61073) | β-arrestin recruitment, antagonist |  |  |  | IC50 | 2000 nM |
| O=C1C(Cl)=C(NCCN2CCOCC2)C(=O)c2ncccc21 | CARM1 (Homo sapiens, UniProt Q86X55) | enzyme activity, inhibitor |  |  |  | IC50 | 1300 nM |
| Cc1nc2ccccc2c(=O)n1N | Phospholipase A2, membrane associated (Homo sapiens, UniProt P14555) | enzyme activity, inhibitor, colorimetric |  |  |  | IC50 | 32000 ± 850 nM |
| CC[C@H](C)[C@H](NC(=O)[C@H](CCCNC(=N)N)NC(=O)[C@@H]1CCCN1C(=O)[C@H](CCCCN)NC(=O)[C@@H](N)CC(C)C)C(=O)O | B1 bradykinin receptor (Rattus norvegicus, UniProt P97583) | ligand displacement, radioligand |  | cell membranes |  | IC50 | 8100 nM |

Excerpt of the above:
| SMILES | tested on | assay | system | conditions | how to read | quantity | value |
| --- | --- | --- | --- | --- | --- | --- | --- |
| Cc1ncsc1-c1ccc(C(C)NC(=O)C2CC(O)CN2C(=O)C(NC(=O)CCCCCCCCCCN2CCCC(Nc3ncc(Cl)c(Nc4ccccc4S(=O)(=O)C(C)C)n3)C2)C(C)(C)C)cc1 (centres unmarked) | 22Rv1 | RNA-seq, measured: MGAT2 mRNA |  | concentration not given | baseline: DMSO | log2 fold change | -1.11 |
